Results collected from several papers.
Numbered parts are unrelated; each lists some results of a single study.

Sample 1
Target: Prothrombin, mature alpha-thrombin (F2, Homo sapiens, UniProt P00734)
Method: aptamer microarray, sandwich
Molecule type: DNA with 2'F-ANA
Medium: in vitro
Tested at: 200 nM
Notes: whole 15-mer aptamer, many near background
Together with: Cy3 exosite-II aptamer, 400 nM
Reading: higher = stronger binding
Strand: GGTTGGTGTGGTTGG
| Modification | mean fluorescence intensity [a.u.] |
| --- | --- |
| 2'F-ANA at 5 9 11 13 14 | 88.1 |
| 2'F-ANA at 3 4 5 7 10 13 14 | 45 |
| 2'F-ANA at 1 5 11 12 | 84.5 |
| 2'F-ANA at 2 3 5 7 8 10 11 12 13 15 | 57.7 |
| 2'F-ANA at 1 3 6 8 11 14 15 | 84.1 |
| 2'F-ANA at 2 5 13 14 15 | 43.9 |
| 2'F-ANA at 2 3 4 6 7 9 10 13 14 | 159 |
| 2'F-ANA at 1 3 5 7 8 11 13 14 | 168 |
| 2'F-ANA at 1 2 4 6 7 9 11 12 15 | 155 |
| 2'F-ANA at 5 6 7 9 10 12 | 52.4 |
| 2'F-ANA at 4 5 7 10 11 12 13 | 49.1 |
| 2'F-ANA at 2 4 8 10 12 13 | 109 |
| 2'F-ANA at 2 3 4 5 9 10 14 15 | 48 |
| 2'F-ANA at 2 6 11 13 15 | 251 |
| 2'F-ANA at 1 3 4 7 10 13 15 | 56.4 |
| 2'F-ANA at 1 2 5 9 10 12 13 15 | 58.8 |
| 2'F-ANA at 1 2 3 6 7 8 9 12 | 453 |
| 2'F-ANA at 1 4 5 6 8 9 10 11 14 15 | 80.1 |
| 2'F-ANA at 2 4 8 9 10 11 12 13 14 15 | 59.3 |
| 2'F-ANA at 1 3 7 9 10 13 15 | 79.1 |
| 2'F-ANA at 4 5 6 7 11 12 | 98.9 |
| 2'F-ANA at 1 5 6 7 8 11 13 15 | 73.6 |
| 2'F-ANA at 3 4 5 7 13 15 | 59.2 |
| 2'F-ANA at 6 10 11 | 165 |
| 2'F-ANA at 1 4 6 7 8 11 13 14 | 63.2 |

Sample 2
Target: Centromere-binding protein 1, full length, His-tagged (CBF1, Saccharomyces cerevisiae, UniProt P17106, residues 1-351)
UniProt P17106, sequence (whole entry, looked up): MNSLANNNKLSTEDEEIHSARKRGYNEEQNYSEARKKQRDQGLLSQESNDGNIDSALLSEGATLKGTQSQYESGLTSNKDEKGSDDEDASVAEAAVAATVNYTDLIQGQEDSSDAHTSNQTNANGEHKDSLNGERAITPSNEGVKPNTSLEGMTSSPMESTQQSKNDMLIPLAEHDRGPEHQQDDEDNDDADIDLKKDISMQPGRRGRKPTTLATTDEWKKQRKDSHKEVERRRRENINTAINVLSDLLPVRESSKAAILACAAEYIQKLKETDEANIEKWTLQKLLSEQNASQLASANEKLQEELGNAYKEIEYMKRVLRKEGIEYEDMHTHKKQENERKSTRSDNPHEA
Method: competition protein-binding microarray
Molecule type: double-stranded DNA, one strand shown
Medium: in vitro
Tested at: 2 µM
Notes: whole 60-bp probe, lowest competitor level
Together with: Pho4 competitor, 0.05 µM
Reading: higher = stronger binding
Shared flanks, not repeated: … GTCTTGATTCGCTTGACGCTGCTG
| Strand | fluorescence intensity |
| --- | --- |
| TTGTGGTGAAGCCGTTTTGTGATGGGTGTGGCGCGA | 83.5 a.u. |
| AAGAGAAAAAGTACAAACGTGTAGAGCAGGATGATC | 260 a.u. |
| CCGTATCTAGTATCGCACGCTCTTTTGCAAAAATAT | 138 a.u. |
| CGTCCTAGTGATTGTCACCAAACTTCCATGAGGAAG | 75 a.u. |
| TCTCTTTCGAAAATGCTCGTGTAGCTCAGTGGTTAG | 80.8 a.u. |
| TGAGGTAAGATTCTCTCCGTGCCAGCCTCTGGTGCT | 56.8 a.u. |
| TCAAAAAAGAAACTACACGTGCTTTTAATATACCGA | 2310 a.u. |
| CGGGGTTAAGTTTGCTTGGTGGGTGGCTTGCAGCAG | 63.9 a.u. |
| TCTCAAGATCTGTTCCTCGTGGCCGAATGGTTACGG | 71.4 a.u. |
| CGGGGTTAAGTTTGTCACCGAACTTGCTTGCAGCAG | 60.1 a.u. |
| AAAGCGGTAATTTGTCACCGTACTTCACATATCTAT | 82.3 a.u. |
| CTTTCCCGATCTTGTCGTGTGGGTGTAGCACATTTG | 71.3 a.u. |
| AAAAAACTACCCCATCACGTGAAATTTATTAGAAAA | 4480 a.u. |
| ACCGTATATATACTACACGCACACACACCAACACAA | 90.4 a.u. |
| GTCTTCTCCAAAACATTCGTGACGAATAGTCCTGCT | 83.5 a.u. |
| CATGTTTCGATGTTACACGTGGAACAAGAGTTAAGA | 1100 a.u. |
| CCGACTGCGCAGCCCAACGTGCGGATAATTGGAGAC | 92 a.u. |
| GTCTTGTCTCATTGTGTGGTGGGTGTCCCCACTTCA | 71.9 a.u. |
| GCAATAATGAACCGTCACATGCAAGCCCCATACGCC | 450 a.u. |

Sample 3
Target: RNA binding protein fox-1 homolog 2, RRM domain, GST-SBP tag (RBFOX2, Homo sapiens, UniProt O43251-10, residues 100-194)
Method: RNA Bind-n-Seq
Molecule type: RNA
Medium: in vitro
Tested at: 365 nM
Notes: natural RNA segment, single round, ends assumed
Baseline: no-protein control
Reading: higher = stronger binding
Shared flanks, not repeated: GGGAGUUCUACAGUCCGACGAUC … UGGAAUUCUCGGGUGCCAA
Residues (chain): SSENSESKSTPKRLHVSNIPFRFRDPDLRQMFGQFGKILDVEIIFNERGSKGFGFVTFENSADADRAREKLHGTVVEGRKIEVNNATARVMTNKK
| Strand | RBNS enrichment (R) |
| --- | --- |
| UUUCACUGUUCGAGGCACAUGGUUAUUGGCUAUCCAUUUAGUUUUCACAGAGGCUGACCACCUUACACUGCUGGGUGGUCACAACUGCUCACCAUGUGAACAUAGUACCU | 0.295 |
| GCUGCCAAUAAUAUCUAAUAUUUUUCAUCAUGCACGAAUUAAUAAUCAUCAUACUCUAGAAUCUUGUCUGUCACUCACUACAUGAAUAAGCAAAUAUUGUCUUCAAAAGA | 0.485 |
| CCCCUCCUCCCUGCUCUCCCAGGCCCCUGCCACAGCCUCUUUCCGUCCCUCUCUUUCUGAUCCAGGCCCCUCAGUCCAAGCUUUGGAAAACCUUCACCUCAUCUUAAACC | 0.966 |
| GGGAUGGAGACAUGUCAUUUGUAAAAGCAGAAAAAGGUUGCAUUUGUUCACUUUUGUAAUAUUGUCCUGGGCCUGUGUUGGGGUGUUGGGGGAAGCUGGGCAUCAGUGGC | 1.07 |
| CAAGAGUCAGGACUUCAGGACUCUGUCCUUCCUUCCCACUCAUCGCCCUUGCAGACAGCGUGUGCUUUGCGAACAGCAGCAGAAGUCACAUUUAGAACAAAAAGGAGGGG | 0.369 |
| UUGGCUUUCAGAAAGAUACAGUGAUAAUGUGUGUAUGAAUCAGUCACAAUGAAUUUUACUUGAAUAUUGUAUGUUGCAUUCCACUUCAUUUGAAAAUAAUGAAACCAUGU | 1.27 |
| AGGAGCUCUAAUUAUGCUUUAAAAAUCUGUUGUGGAGAUUGCUUUAAAUGCUCCCUGCCUGGUGUGGGGAUGGGGUCCCCCUCUUUGUGAGGGCUGGAGCAUGGCACGGC | 1.29 |
| CCCGGCAUCCCUUAGCCUCUAUAGCAGUGUGCUCAAAAGCCCUGGCUCAACAAAGCACAUCUUCACCACGCUCCAUCCGGACAACUCCAGUCUUGCCAACAAGUGCCAAA | 0.701 |

Sample 4
Target: RING finger protein unkempt homolog, zinc fingers 1-6, SBP tag (UNK, Homo sapiens, UniProt Q9C0B0, residues 30-357)
UniProt Q9C0B0, sequence (30-357, looked up): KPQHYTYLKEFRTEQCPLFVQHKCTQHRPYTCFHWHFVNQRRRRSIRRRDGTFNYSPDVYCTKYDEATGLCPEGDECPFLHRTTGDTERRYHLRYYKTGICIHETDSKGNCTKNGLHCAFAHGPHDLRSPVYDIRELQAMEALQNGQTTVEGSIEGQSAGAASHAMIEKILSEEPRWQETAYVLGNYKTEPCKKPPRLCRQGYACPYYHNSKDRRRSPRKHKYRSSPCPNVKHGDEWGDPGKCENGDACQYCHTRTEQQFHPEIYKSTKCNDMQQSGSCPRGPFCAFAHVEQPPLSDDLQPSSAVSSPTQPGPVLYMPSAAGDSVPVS
Method: RNA Bind-n-Seq
Molecule type: RNA
Medium: in vitro
Tested at: 100 nM
Notes: RNA with constant flanks, vertebrate orthologous sites, ends assumed
Baseline: input RNA pool
Reading: higher = stronger binding
Shared flanks, not repeated: GGGAGUUCUACAGUCCGACGAUC … CAACAGAGGAUUGAGCAUCA
| Strand | bound/input enrichment |
| --- | --- |
| GAAUUGAACAAAAGCGUUUCCACUGGGUUUUGCCUGUAAGAAAAAACGUACCCGAGCACAUAGAGCUUUUUAAUAGCGCUAACCAAUGCCUUUUUAGAUGUAUUUUUGAUGUAUAUAUCU | 0.742 ratio |
| AUCCCAGUUUGUAUGCACAUUAUUCACAUUCCUAUCUGUUGUGUUUGCAGAAAUGACAUUUUACCCUUUUCUAAGGGUUACUUUACAAUUUUCAUAUUAUUUGGUUGCAUGAAGUUGCCC | 0.461 ratio |
| GACCUCCUGAACUUGGAGCUUUCCGGUUGUGGCUGUUUUAGAUACUGAUUUUCUUUUCCUUAGAGUUUUUCCCUCUUCCCUGCCUUCUCUUCCCCUGUUCCCAAGGUUUGACUUCUGGAU | 1.17 ratio |
| AAAUCUACUUCAUGCCUUGGACUCCGUACCGAACAGACACUCUAAUCGAGUACUCCUCCUUGGAUGACUUUCAAAAUGCCCGUCAAACCAUCACCUACAAGCUGCCGCACCGGGUGGAUG | 0.346 ratio |
| UUUUUUUUUUUGCACAUGACAGUGUUUGUAUUGAGGAUCUUCUGAAGAAGAGGGGUGCUGUGGCAGUGGCGCCUGGGUGCCUGGCCUCCAGUGUCCCACCCCCUUCACCACCCCACUUGG | 0.308 ratio |
| CUUAAUUAGAGGGUAGUAAAUAUUUCAUAAAGAAGAGUCUUUAUAAUUUUGUUUGUCAUAUAGUAUUUUGGAAUUUGUAUAAUGAGGAUGUUUAGAAGCCAUAUCAAUGGCUUUUUUUAA | 0.393 ratio |
| AAAUUCCCCCAUUGUCACUGAGAACCACCAAAUCUGACUUUUACAUUUGGUCUCAGAAUUUAGGUUCCUGCCCUGUUGGUUUUUUUUUUUUAAACAGUUUUCAAAAGUUCUUAAAGGCAA | 0.495 ratio |
| AGCAACCCAAGGACUCAGGACUGGUUUAACAAAUAUGCCAAGUAGAUAUGGAACUCACAAUAGAAUUGGACAACCAAGACCAUGAUGUACUGUAAAUUAAUUUAUUUUUAUGAGGAAUAC | 1.26 ratio |
